Published values pooled from the literature.
Parts stem from different laboratories: compare values within a part only. pKd: −log10 of the molar value.
Chain of UniProt P62344 (whole entry, looked up): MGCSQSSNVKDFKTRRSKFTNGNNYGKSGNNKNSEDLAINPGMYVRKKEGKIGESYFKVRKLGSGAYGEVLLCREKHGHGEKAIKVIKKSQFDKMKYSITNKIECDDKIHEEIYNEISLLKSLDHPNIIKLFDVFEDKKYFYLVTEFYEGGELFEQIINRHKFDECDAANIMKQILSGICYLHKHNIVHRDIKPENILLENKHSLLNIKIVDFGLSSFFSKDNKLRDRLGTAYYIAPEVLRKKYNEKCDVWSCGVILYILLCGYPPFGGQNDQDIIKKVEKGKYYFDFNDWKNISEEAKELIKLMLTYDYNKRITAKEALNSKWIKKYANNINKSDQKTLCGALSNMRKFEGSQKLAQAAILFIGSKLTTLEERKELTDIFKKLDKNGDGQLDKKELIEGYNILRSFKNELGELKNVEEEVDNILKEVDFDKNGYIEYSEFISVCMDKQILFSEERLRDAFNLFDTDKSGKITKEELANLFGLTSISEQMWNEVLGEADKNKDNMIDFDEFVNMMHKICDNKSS
Chain of UniProt P35626 (whole entry, looked up): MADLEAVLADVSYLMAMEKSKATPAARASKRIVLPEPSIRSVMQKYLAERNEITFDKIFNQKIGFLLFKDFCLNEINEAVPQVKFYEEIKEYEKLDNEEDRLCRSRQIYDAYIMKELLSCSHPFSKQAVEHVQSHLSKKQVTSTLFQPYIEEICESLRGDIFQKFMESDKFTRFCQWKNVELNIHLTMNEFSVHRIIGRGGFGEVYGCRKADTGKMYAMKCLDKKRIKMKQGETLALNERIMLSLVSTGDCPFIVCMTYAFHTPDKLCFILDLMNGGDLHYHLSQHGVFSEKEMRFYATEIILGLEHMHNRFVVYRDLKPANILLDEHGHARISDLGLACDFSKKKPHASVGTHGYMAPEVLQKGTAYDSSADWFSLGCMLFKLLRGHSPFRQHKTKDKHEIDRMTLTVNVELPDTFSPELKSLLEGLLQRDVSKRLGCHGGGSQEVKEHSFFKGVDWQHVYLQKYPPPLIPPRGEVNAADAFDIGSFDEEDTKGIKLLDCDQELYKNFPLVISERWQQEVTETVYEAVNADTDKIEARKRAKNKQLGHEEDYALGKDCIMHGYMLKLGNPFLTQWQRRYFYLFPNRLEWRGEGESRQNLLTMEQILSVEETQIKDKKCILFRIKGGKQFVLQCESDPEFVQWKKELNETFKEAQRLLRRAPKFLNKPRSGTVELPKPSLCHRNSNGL
Chain of UniProt Q9UQM7 (whole entry, looked up): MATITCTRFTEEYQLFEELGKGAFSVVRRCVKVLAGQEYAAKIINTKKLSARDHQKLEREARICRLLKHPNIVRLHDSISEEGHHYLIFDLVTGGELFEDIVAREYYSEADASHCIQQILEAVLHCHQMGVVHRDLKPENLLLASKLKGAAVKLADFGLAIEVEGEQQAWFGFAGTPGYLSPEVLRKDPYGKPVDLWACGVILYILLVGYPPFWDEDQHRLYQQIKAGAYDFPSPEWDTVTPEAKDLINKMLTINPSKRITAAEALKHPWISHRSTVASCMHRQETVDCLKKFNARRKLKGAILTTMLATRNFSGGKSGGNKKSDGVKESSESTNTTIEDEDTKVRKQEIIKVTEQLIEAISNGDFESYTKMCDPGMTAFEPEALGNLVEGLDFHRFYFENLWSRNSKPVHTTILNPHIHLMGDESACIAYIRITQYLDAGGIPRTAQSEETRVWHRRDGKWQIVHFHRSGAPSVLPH
Chain of UniProt P28335 (whole entry, looked up): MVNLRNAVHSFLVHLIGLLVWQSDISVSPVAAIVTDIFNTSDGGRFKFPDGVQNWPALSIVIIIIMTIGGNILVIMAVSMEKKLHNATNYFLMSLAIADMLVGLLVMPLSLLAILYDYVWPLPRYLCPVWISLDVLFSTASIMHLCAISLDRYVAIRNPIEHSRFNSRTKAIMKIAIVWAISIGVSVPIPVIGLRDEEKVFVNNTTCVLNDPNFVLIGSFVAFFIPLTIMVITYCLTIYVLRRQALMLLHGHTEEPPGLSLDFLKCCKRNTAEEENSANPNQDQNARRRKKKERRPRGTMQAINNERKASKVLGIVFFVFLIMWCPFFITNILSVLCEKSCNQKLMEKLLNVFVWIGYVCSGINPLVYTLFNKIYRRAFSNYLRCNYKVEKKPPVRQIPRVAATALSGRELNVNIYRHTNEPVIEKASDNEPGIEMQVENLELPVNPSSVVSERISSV
Chain of UniProt P9WI81 (whole entry, looked up): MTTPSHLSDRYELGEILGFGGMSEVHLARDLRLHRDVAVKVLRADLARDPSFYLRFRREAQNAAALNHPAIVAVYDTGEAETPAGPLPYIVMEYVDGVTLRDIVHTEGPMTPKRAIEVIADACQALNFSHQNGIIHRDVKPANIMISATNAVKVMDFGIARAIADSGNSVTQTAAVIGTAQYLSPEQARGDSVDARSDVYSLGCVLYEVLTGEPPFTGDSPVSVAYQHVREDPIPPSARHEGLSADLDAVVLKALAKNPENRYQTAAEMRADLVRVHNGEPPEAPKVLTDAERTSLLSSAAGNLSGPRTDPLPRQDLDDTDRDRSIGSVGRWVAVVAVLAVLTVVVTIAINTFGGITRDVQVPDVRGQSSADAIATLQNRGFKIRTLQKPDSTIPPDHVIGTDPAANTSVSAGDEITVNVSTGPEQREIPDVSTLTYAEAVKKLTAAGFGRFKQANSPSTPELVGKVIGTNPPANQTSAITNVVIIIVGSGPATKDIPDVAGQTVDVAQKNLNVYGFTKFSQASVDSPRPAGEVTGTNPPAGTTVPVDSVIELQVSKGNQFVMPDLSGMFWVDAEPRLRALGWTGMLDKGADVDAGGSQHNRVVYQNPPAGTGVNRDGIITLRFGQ
Chain of UniProt P38919 (whole entry, looked up): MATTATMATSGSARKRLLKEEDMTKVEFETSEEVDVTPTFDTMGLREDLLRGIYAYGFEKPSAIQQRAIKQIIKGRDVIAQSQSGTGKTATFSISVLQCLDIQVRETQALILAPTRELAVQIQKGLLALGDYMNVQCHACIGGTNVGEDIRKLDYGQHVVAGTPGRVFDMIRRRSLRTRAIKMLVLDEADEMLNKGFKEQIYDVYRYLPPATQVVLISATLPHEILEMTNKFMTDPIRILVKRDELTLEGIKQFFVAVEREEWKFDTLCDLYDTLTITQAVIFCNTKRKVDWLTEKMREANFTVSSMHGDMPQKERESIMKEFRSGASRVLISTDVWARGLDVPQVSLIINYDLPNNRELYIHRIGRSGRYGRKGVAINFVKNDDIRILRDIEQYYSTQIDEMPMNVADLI

Study 1
Organism: Plasmodium berghei
Action: inhibitor
Cells: Huh-7
Strain: liver stage
Tested at: 10 µM
Time: 24 h
Relative to: untreated control
Quantity: infection rate
CC[C@@H](CO)NC(=O)[C@@H]1C=C2c3cccc4[nH]cc(c34)C[C@H]2N(C)C1: 88.3%
CC(Cc1ccc(O)cc1)NCC(O)c1cc(O)cc(O)c1 (stereo not shown): 83%
C#C[C@]1(O)CC[C@H]2[C@@H]3CCC4=CC(=O)CC[C@]4(C)[C@H]3CC[C@@]21C: 88%
CCC(N)C(O)c1ccc(O)c(O)c1 (stereo not shown): 83.1%

Single results of other studies
Cn1cncc1[C@](O)(COc1ccc(C#N)cc1-c1ccc(OC(F)(F)F)cc1)c1ccc(C#N)cc1  pKd (G protein-coupled receptor kinase 3 (GRK3, Homo sapiens, UniProt P35626); binding, competition with immobilised ligand): < 5.00
COC(=O)[C@@H]1[C@@H](c2ccccc2)[C@]2(c3ccc(OC)cc3)Oc3cc(OC)cc(OC)c3[C@@]1(O)[C@H]2O  fluorescence polarization change (Eukaryotic initiation factor 4A-III (Homo sapiens, UniProt P38919); RNA clamping, fluorescence polarization; concentration not given, mean of two replicates, together with: FAM-labelled poly r(AG)8 RNA): 5 mP
CN1CCN(c2cnc3c(C4CCN(C(=O)c5ccc(OC(F)(F)F)cc5N)CC4)ncnc3c2)CC1  remaining binding (Serine/threonine-protein kinase PknB (pknB, Mycobacterium tuberculosis, UniProt P9WI81); cell-free assay, competition with immobilised ligand; 1 µM): 97%
O=C1CCC[C@@H]2[C@H]3CCCN4CCC[C@@H](CN12)[C@H]34  inhibition (Calcium/calmodulin-dependent protein kinase type II subunit alpha (CAMK2A, Homo sapiens, UniProt Q9UQM7); enzyme activity, inhibitor; 10 µM): 6%
CC(C)(O)c1cncc(-c2nc3ccc(F)cc3n2C2CC2)c1  remaining binding (Calcium-dependent protein kinase 1 (CDPK1, Plasmodium falciparum, UniProt P62344); cell-free assay, competition with immobilised ligand; 1 µM): 100%
O[C@]1(C(F)(F)F)CCCC[C@H]1Nc1ccc(F)cc1  inhibition (5-hydroxytryptamine receptor 2C (HTR2C, Homo sapiens, UniProt P28335); binding, radioligand binding; 10 µM): 23.4%

A few entries again (study 1):
C#C[C@]1(O)CC[C@H]2[C@@H]3CCC4=CC(=O)CC[C@]4(C)[C@H]3CC[C@@]21C: 88%
